Measured values gathered from unrelated publications.
Numbered parts are unrelated; each lists some results of a single study. Positions count from the first letter of the parent shown.

Series 1 — method: DHFR PCA, deep sequencing; medium: yeast; together with: (+)-ABA 0.032 µM; reference: wild-type fitted maximum; reading: higher = stronger binding
Target: ABI1, truncated, D143A, DHFR fusion (Arabidopsis thaliana)
Setting: methotrexate growth selection, single substitutions
Parent: PYL1, truncated, DHFR fusion (Arabidopsis thaliana); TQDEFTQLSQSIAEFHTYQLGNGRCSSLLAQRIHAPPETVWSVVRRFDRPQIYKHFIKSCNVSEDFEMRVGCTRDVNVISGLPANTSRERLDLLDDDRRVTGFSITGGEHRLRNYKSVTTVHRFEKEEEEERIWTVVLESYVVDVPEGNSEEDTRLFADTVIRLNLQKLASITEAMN
Change | relative binding score [%]
S42N | 21.6
R123L | 3.57
V40Y | -9.78

Series 2 — method: aptamer microarray, sandwich; molecule type: DNA with 2'F-ANA; medium: in vitro; tested at: 200 nM; together with: Cy3 exosite-II aptamer, 400 nM; reading: higher = stronger binding; oligonucleotide: GGTTGGTGTGGTTGG
Target: Prothrombin, mature alpha-thrombin (F2, Homo sapiens, UniProt P00734)
Setting: whole 15-mer aptamer, many near background
Modification | mean fluorescence intensity [a.u.]
2'F-ANA at 1 3 4 5 7 8 12 14 15 | 134
2'F-ANA at 2 3 5 9 14 | 77.4
2'F-ANA at 2 8 9 11 13 14 15 | 110
2'F-ANA at 1 3 4 5 6 7 10 11 12 13 14 15 | 88.7
2'F-ANA at 1 3 4 6 7 9 11 12 15 | 248
2'F-ANA at 3 4 7 10 12 14 15 | 240

Series 3 — target: CCNB3, cyclin fold, Cln2 fusion (human); method: yeast growth competition, sequencing; medium: yeast; setting: weak parent motif; reference: not given; reading: higher = stronger binding
Parent: PKN2 docking peptide (human); VSAVQKLDFSDTM; partner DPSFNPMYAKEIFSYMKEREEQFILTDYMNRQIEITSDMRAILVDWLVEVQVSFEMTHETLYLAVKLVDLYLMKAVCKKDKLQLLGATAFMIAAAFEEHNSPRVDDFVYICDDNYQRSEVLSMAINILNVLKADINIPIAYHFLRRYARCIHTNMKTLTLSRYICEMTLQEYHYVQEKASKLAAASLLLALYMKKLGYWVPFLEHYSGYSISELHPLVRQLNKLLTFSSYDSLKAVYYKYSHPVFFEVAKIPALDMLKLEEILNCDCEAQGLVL
Change | normalised enrichment score
F9D | 0.376
T12D | -0.223
S2E | 0.0508
S2V | 0.366
L7G | 0.0266

Single results of other studies
Substance | target | assay | test system | conditions | how to read | measurement | value
PhoQ, residues 284 288 289 292 302 303 HSSMNL | PhoP, residues 12 14 15 18 19 IQSYL (Escherichia coli, UniProt P23836) | Sort-seq, measured: YFP reporter | E. coli | PhoQ-PhoP variant library, together with: 10 µM Mg2+ | reference: high Mg2+ state, higher = stronger signaling | fold induction | 16.3

A few entries again (single results of other studies):
Substance | target | assay | test system | conditions | how to read | measurement | value
PhoQ, residues 284 288 289 292 302 303 HSSMNL | PhoP, residues 12 14 15 18 19 IQSYL (Escherichia coli, UniProt P23836) | Sort-seq, measured: YFP reporter | E. coli | PhoQ-PhoP variant library, together with: 10 µM Mg2+ | reference: high Mg2+ state, higher = stronger signaling | fold induction | 16.3
